Results from different studies.
Compare with care: the assays were run in different laboratories. Values joined by “and” are separate records of one study, mostly repeats; a detail may differ. Numbers after ± are the reported error.
Chain of UniProt P11712 (whole entry, looked up): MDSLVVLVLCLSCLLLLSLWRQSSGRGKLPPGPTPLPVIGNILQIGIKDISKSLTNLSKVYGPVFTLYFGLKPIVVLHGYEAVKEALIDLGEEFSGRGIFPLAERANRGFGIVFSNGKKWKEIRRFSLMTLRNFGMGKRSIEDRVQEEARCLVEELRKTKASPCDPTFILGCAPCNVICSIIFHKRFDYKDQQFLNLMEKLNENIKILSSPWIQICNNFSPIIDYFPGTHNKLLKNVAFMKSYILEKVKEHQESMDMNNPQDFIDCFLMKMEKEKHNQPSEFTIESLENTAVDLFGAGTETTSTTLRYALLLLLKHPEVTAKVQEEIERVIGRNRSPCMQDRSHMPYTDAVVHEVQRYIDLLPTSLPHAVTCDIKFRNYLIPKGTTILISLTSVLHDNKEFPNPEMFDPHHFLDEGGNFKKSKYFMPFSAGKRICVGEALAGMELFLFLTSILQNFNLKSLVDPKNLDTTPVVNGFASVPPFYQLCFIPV

C1=NCCCN=Cc2ccc([nH]2)-c2nc3ccccc3nc2-c2ccc1[nH]2
melting temperature (human ACTN3 291-bp linear dsDNA; high-resolution melt; 26.5 µM): 83 °C

CCCC[C@H](NC(C)=O)C(=O)N[C@@H](CO)C(=O)N[C@H](C(=O)N1CCC[C@H]1C(=O)N[C@]1(C)CCCCCCC=CCCC[C@@](C)(C(=O)N[C@@H](Cc2ccccc2)C(=O)N[C@@H](CCCCN)C(=O)N[C@@H](CCCNC(=N)N)C(=O)N[C@@H](CC(C)C)C(=O)N[C@@H](CCC(N)=O)C(N)=O)NC(=O)[C@H](CCCNC(=N)N)NC(=O)[C@H](CCCC)NC(=O)[C@H](CC(C)C)NC(=O)[C@H](CCCNC(=N)N)NC(=O)[C@H](CCCNC(=N)N)NC(=O)[C@H](CCCNC(=N)N)NC1=O)[C@@H](C)O
remaining peptide (proteinase K; LC-MS; 25 µM, 61.5 min, pH 7.4): 81% and 79.7%

CN1CCCNC(=O)c2cccc(c2)C(=O)NCCCN(C)CCCNc2cccc3c2C(=O)c2cccc(c2C3=O)NCCC1
ΔTm (telomeric G-quadruplex DNA; DNA thermal stabilisation, CD melting; concentration not given, pH 7.4, with: 100 mM NaCl): 4.9 ± 0.1 °C

CNC(=O)C1CCCN(C(=O)C2CC3CCC2N3C(=O)[C@@H]2C[C@@H](O)CN2C(=O)NCc2cccc(Cl)c2F)C1 (mixture of isomers)
remaining activity (Cytochrome P450 2C9 (CYP2C9, Homo sapiens, UniProt P11712); preincubation with NADPH; human; 5.56 µM; relative to: negative control): 105% and 109% and 95.5%

OC(COc1ccc2cc(Br)ccc2c1)Cn1ccnc1 (stereo not drawn)
translation activity (Trypanosoma cruzi; reporter mRNA translation, inhibitor, refers to: Renilla luciferase mRNA; cell-free extract; concentration not given, test 1; relative to: positive over negative control): 107%

C=CC(=O)N1[C@@H](c2ccc3c(c2)OCO3)c2[nH]c3ccccc3c2C[C@H]1C(=O)N1CCN(C)CC1
relative co-enrichment (human cyclin E1 wild type-3xFLAG:CDK2; co-IP with TMT proteomics, refers to: NUP98; concentration not given, P52948; relative to: wild type DMSO): 103%

CNS(=O)(=O)Nc1nccc(Cc2c(C)c3ccc(Oc4ncccc4F)cc3oc2=O)c1F
IC50 (KU-19-19; cell viability; 7 days): 4.53 nM

CC[C@H]1OC(=O)[C@H](C)[C@@H](OC(=O)Cc2ccc(C(F)(F)F)cc2)[C@H](C)[C@@H](O[C@@H]2O[C@H](C)C[C@H](N(C)C)[C@H]2O)[C@](C)(OC)C[C@@H](C)C(=O)[C@H](C)[C@@H](O)[C@]1(C)O
IC50 (Escherichia coli ribosome; in vitro transcription-translation, inhibitor): > 1000 nM and 1600 nM

COC1CN([C@H]2CC[C@H]([C@@]3(C)Oc4c(Cl)cc(C(=O)NCc5c(SC)cc(C)[nH]c5=O)c(C)c4O3)CC2)C1
log2 fold change (RNA-seq, refers to: DNASE2 mouse homolog; mouse, HT-1376 xenograft, whole blood; dose not given; relative to: vehicle): 0.0942

Cc1ncsc1-c1ccc(C(C)NC(=O)C2CC(O)CN2C(=O)C(NC(=O)CCCCCCCCCCN2CCCC(Nc3ncc(Cl)c(Nc4ccccc4S(=O)(=O)C(C)C)n3)C2)C(C)(C)C)cc1 (stereo not drawn)
log2 fold change (22Rv1; RNA-seq, refers to: SLFNL1-AS1; concentration not given; relative to: DMSO): -1.12

Nc1ncc(-c2cc(-c3cnn(CC(F)(F)F)c3)ncc2F)nc1C(=O)NC1CNCC(F)C1 (stereo not drawn)
remaining binding (TRPM6; KINOMEscan; 1 µM; relative to: DMSO control): 100%

Cn1ccc2cc(-n3c(=O)[nH]c4sc5c(c4c3=O)CCCC5)ccc21
inhibition (imidazoline I2 receptor rat; binding, radioligand binding; 10 µM, central): -21%

CC[C@H]1OC(=O)[C@H](C)[C@@H](OC(=O)Cc2cccc(Cl)c2)[C@H](C)[C@@H](O[C@@H]2O[C@H](C)C[C@H](N(C)C)[C@H]2O)[C@](C)(OC)C[C@@H](C)C(=O)[C@H](C)[C@@H](O)[C@]1(C)O
IC50 (Escherichia coli ribosome; in vitro transcription-translation, inhibitor): 460 nM

CC1CCC2C(C)(C)C(O)CCC2(C)C12Cc1c(O)cc(CO)c(C=O)c1O2 (stereo not drawn)
kcat (StaI′ (Stachybotrys chartarum); substrate; 30 min, pH 7.5, 40 °C): 0.025 s⁻¹

CC1(C)C[N+]2=Cc3ccc4[n]3[Au-]23[n]2c(ccc2-c2nc5ccccc5nc2-4)C=[N+]3C1.F[P-](F)(F)(F)(F)F
melting temperature (human ACTN3 291-bp linear dsDNA; high-resolution melt; 2.02 µM): 83.9 °C

C=CC(=O)Nc1cccc(Cn2ncc3cnc(Nc4cnn(CCOC)c4)nc32)c1
percent of control (STK16 human; binding, KINOMEscan; 100 nM; lower = stronger binding): 19%

c1ccc(-c2n[nH]cc2-c2ccnc3ccccc23)nc1
log2 fold change (PTK2 (Candida albicans); kinase binding, MIB/MS competition; Candida albicans lysate; 1 µM; relative to: DMSO): 0.1

Fc1ccc(Nc2nc(NC3CCCCC3)c3cc(C(F)(F)F)ccc3n2)cc1F
maximal inhibition (β2AR/β1AR ECL1/3 chimera; β-arrestin2 recruitment, antagonist, BRET; relative to: isoprenaline maximal response): -5%
